Experimental data gathered from unrelated publications.
Numbered parts are unrelated; each lists some results of a single study. “And” joins repeats or separate records; there may be more than shown.
Chain of UniProt P29323 (whole entry, looked up): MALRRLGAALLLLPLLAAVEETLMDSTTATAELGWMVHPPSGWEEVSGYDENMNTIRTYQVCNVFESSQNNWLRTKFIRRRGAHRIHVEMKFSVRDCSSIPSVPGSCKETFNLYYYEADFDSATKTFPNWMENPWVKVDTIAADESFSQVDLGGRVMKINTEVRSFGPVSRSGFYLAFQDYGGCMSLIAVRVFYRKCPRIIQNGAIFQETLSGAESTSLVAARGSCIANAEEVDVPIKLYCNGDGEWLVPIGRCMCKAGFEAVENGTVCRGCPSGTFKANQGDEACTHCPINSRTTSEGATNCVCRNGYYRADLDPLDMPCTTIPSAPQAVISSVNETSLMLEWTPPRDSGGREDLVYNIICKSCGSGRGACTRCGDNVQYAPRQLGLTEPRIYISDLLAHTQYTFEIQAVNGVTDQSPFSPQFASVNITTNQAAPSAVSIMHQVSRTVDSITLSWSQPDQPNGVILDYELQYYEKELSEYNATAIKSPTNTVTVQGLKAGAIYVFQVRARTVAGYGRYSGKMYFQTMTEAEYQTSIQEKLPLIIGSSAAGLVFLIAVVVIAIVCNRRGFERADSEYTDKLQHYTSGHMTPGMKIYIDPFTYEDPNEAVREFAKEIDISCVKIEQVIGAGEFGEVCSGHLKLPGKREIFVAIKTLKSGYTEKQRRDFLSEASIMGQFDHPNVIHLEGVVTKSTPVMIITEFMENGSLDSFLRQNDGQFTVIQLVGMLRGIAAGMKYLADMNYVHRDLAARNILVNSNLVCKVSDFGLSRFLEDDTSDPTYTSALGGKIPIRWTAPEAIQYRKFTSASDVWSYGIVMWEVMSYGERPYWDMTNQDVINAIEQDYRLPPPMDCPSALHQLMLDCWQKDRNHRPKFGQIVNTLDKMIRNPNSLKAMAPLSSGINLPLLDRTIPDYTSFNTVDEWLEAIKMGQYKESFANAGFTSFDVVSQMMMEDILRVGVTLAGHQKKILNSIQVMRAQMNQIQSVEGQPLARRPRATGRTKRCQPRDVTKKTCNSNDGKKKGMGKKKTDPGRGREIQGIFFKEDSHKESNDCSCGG
Chain of UniProt P51451 (whole entry, looked up): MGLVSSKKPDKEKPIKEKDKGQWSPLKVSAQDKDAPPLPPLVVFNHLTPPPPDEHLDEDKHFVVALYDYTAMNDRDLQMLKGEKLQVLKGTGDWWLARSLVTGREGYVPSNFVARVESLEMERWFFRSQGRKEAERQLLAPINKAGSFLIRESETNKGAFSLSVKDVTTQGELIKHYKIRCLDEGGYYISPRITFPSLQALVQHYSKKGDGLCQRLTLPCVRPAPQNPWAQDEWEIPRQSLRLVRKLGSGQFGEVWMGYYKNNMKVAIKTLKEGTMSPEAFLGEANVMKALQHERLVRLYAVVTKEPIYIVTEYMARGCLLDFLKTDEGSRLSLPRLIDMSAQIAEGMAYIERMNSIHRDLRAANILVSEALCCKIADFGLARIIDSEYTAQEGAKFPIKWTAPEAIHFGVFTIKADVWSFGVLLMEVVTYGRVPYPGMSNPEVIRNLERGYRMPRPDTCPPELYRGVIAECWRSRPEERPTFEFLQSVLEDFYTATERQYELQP
Chain of UniProt Q13557 (whole entry, looked up): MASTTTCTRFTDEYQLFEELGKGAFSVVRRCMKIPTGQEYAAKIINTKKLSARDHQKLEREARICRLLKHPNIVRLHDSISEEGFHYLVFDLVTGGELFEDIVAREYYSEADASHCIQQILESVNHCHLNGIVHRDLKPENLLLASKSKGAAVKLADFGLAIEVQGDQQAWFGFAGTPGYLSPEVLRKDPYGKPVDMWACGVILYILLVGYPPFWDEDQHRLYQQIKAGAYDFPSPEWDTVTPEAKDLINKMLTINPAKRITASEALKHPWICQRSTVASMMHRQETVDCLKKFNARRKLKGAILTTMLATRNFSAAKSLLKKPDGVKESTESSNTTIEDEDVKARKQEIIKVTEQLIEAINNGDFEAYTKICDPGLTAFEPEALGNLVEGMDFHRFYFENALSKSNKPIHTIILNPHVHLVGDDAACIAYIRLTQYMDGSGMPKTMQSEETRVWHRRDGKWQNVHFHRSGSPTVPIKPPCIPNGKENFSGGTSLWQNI
Chain of UniProt P07949 (whole entry, unmodified, looked up): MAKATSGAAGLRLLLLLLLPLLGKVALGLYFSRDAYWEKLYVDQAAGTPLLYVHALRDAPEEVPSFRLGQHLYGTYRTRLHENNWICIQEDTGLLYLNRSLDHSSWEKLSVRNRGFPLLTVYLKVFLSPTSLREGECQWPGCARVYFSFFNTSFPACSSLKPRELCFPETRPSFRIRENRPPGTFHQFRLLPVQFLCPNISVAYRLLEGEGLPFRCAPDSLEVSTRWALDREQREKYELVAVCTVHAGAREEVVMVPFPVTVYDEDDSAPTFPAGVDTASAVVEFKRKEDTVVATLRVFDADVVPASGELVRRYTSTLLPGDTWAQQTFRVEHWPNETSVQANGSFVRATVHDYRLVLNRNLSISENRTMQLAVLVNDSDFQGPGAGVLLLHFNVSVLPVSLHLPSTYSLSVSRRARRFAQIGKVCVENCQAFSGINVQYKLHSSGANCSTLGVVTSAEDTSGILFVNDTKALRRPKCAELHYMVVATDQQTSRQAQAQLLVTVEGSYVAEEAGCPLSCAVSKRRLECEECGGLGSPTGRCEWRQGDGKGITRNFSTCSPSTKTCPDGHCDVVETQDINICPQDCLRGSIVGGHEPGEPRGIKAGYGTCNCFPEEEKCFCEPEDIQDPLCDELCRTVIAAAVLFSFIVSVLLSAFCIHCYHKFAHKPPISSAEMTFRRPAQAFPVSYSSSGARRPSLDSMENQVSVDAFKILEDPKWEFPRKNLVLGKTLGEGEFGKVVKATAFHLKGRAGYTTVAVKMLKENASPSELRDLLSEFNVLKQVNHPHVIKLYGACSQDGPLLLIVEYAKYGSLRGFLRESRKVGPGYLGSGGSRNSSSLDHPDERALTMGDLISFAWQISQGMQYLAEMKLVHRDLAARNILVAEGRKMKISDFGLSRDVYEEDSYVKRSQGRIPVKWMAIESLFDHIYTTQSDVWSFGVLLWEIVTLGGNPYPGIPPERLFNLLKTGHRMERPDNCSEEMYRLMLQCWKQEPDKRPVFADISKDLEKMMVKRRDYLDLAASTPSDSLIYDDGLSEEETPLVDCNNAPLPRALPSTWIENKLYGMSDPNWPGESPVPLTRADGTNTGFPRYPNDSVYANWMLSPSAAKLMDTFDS

Block 1 — cell line: Huh-7; tested at: 10 µM; time: 24 h
SMILES | viability [%]
COC(=O)[C@H]1[C@H]2C[C@@H]3c4[nH]c5cc(OC)ccc5c4CCN3C[C@H]2C[C@@H](OC(=O)c2cc(OC)c(OC)c(OC)c2)[C@@H]1OC | 96.9
C[C@@H]1C/C=C/C=C/C=C/C=C/[C@H](O[C@@H]2O[C@H](C)[C@@H](O)[C@H](N)[C@@H]2O)C[C@@H]2O[C@](O)(C[C@@H](O)C[C@H]3O[C@@H]3/C=C/C(=O)O1)C[C@H](O)[C@H]2C(=O)O | 101
COc1cc(C(=O)NCCCCCC(=O)O)cc(OC)c1OC | 97.8
O=C(O)c1cccnc1 | 100
C[C@]12C=CC(=O)C=C1CC[C@@H]1[C@@H]2C(=O)C[C@@]2(C)[C@H]1CC[C@]2(O)C(=O)CO | 99.2
CN(C)c1ccc(O)c2c1C[C@H]1C[C@H]3[C@H](N(C)C)C(O)=C(C(N)=O)C(=O)[C@@]3(O)C(O)=C1C2=O | 84.9
O=C1C(O)=C(O)C(=O)C(O)=C1O | 94.6
NNc1nncc2ccccc12 | 101
CC(C)(S)[C@@H](N)C(=O)O | 96.2
CO[C@H]1C[C@H](O[C@H]2[C@H](C)[C@@H](O[C@@H]3O[C@H](C)C[C@H](N(C)C)[C@H]3OC(C)=O)[C@@H](C)C[C@@]3(CO3)C(=O)[C@H](C)[C@@H](OC(C)=O)[C@@H](C)[C@@H](C)OC(=O)[C@@H]2C)O[C@@H](C)[C@@H]1OC(C)=O | 97.5
CC1=C(/C=C/C(C)=C/C=C/C(C)=C/C=C/C=C(C)/C=C/C=C(C)/C=C/C2=C(C)CCCC2(C)C)C(C)(C)CCC1 | 104

Block 2 — effect on: enzyme activity; mode: inhibitor; tested at: 0.5 µM; relative to: control
Target: Serine/threonine-protein kinase MRCK alpha (CDC42BPA, Homo sapiens, UniProt Q5VT25)
Chain of UniProt Q5VT25 (whole entry, looked up): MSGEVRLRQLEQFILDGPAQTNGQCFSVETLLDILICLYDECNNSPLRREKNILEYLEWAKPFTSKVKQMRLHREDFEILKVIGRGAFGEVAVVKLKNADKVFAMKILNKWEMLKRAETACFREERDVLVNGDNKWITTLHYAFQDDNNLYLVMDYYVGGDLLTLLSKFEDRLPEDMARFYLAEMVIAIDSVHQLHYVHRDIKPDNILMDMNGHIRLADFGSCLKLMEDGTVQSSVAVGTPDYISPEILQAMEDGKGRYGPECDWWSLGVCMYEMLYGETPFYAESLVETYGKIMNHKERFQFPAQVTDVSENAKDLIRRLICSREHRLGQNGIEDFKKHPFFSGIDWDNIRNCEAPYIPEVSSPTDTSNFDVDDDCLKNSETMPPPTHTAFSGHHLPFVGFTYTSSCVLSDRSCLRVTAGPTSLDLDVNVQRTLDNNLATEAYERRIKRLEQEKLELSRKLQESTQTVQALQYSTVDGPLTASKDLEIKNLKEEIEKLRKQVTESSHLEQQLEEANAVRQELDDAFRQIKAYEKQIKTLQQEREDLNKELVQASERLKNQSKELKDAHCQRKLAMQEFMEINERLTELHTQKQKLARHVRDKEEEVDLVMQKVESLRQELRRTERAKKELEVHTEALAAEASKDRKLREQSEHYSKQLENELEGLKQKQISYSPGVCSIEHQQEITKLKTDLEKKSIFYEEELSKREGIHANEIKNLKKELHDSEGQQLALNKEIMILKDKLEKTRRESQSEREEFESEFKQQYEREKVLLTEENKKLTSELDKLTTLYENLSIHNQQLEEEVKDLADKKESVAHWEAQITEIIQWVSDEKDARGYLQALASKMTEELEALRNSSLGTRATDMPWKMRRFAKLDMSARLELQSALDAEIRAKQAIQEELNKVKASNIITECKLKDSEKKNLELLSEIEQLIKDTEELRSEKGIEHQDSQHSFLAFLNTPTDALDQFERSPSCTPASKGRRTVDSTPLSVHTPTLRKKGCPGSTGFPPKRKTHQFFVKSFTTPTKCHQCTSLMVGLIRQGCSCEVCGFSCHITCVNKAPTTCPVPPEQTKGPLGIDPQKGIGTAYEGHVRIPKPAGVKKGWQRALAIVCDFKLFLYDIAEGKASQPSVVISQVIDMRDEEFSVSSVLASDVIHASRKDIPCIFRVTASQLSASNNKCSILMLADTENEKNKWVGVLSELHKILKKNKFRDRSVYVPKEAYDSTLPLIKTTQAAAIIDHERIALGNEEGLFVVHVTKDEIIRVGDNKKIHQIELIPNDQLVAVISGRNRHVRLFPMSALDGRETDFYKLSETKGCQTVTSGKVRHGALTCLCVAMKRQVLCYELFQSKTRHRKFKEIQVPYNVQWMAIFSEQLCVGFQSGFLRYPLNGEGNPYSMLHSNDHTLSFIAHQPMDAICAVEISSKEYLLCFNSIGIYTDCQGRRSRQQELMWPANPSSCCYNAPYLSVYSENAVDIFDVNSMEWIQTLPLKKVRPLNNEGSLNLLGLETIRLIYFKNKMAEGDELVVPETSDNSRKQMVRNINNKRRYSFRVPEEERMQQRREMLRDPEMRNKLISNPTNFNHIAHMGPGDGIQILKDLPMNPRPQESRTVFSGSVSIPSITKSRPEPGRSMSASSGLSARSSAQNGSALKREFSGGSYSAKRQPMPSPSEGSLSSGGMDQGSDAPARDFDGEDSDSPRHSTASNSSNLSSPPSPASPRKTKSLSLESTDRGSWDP
SMILES | remaining activity
COc1cc2c(N3CCN(C(=O)Nc4ccc(OC(C)C)cc4)CC3)ncnc2cc1OCCCN1CCCCC1 | 106%
Nc1nc(Nc2ccc(S(N)(=O)=O)cc2)nn1C(=S)Nc1c(F)cccc1F | 54.6%
CC(C)n1cnc2c(Nc3cccc(Cl)c3)nc(NCCO)nc21 | 83.9%
COc1cc2c(Nc3ccc(Br)cc3F)ncnc2cc1OCC1CCN(C)CC1 | 83.7%
CCN(CC)CCCCN1c2ccccc2Oc2ccc(Cl)cc21 | 111%
NC(=O)c1cccc(-c2cc(Nc3ccc(OC(F)(F)F)cc3)ncn2)c1 | 99.3%
CC(C)(C)c1nc2c3cc[nH]c(=O)c3c3cc(F)ccc3c2[nH]1 | 95.7%
c1cc(-c2cnn3cc(-c4ccc(OCCN5CCCCC5)cc4)cnc23)ccn1 | 100%
O=C1c2ccccc2-c2nc3nnnn3nc21 | 91.6%
O=c1c(-c2ccc(F)cc2)c(-c2ccncc2)[nH]n1-c1ccc(Cl)cc1 | 98%
CCCCc1c(-c2ccc(O)cc2)[nH]c2nccnc12 | 99.3%
CC(C)N(CCC(=O)c1ccc2ccccc2c1)Cc1ccccc1 | 99.4%
N#CC(c1ccnc(NCCc2cccnc2)n1)c1nc2ccccc2s1 (centres unmarked) | 99.6%
O=C(c1ccccc1)c1ccc(N2CCOCC2)cc1O | 95.5%
C[C@@H](N)[C@H]1CC[C@H](C(=O)Nc2ccncc2)CC1 | 83.4%
O=C1NC(=O)/C(=C/c2ccc3c(c2)OC(F)(F)O3)S1 | 98.5%
NC(=O)c1ccc(-c2nc(-c3ccc4c(c3)OCCO4)c(-c3ccccn3)[nH]2)cc1 | 99.3%
O=C(O)/C=C/c1cc(Br)c(Br)c(Br)c1Br | 98.5%
O=Nc1c(-c2c(O)[nH]c3ccccc23)[nH]c2ccccc12 | 93.7%
N#C/C(=C(/N)SC1C=CC=CC1)c1cccc(C(O)c2ccncc2)c1 (centres unmarked) | 104%
FC(F)(F)c1ccc(/C=C/c2nc(COc3ccc(CCCCn4ccnn4)cc3)co2)cc1 | 103%
CNc1cc2c(Nc3cccc(Br)c3)ncnc2cn1 | 95.2%
Clc1ccc(Nc2nnc(Cc3ccncc3)c3ccccc23)cc1 | 78.3%

Block 3 — cell line: mouse MPNST tumor cells; method: high-content immunofluorescence imaging; refers to: nuclear SOX9; tested at: 10 µM; time: 12 h; setting: mean of 2 replicates; relative to: DMSO control; reading: higher = more nuclear SOX9
Compound | nuclear SOX9 intensity
Cc1ccc(O)c([C@H](CCN(C(C)C)C(C)C)c2ccccc2)c1 | 143 % of DMSO and 147 % of DMSO
Cc1ccccc1C(=O)Nc1ccc(C(=O)N2CCCC(O)c3cc(Cl)ccc32)c(C)c1 (centres unmarked) | 93.5 % of DMSO and 91.9 % of DMSO and 90 % of DMSO
CCCn1c(=O)[nH]c2nc(-c3ccc(S(=O)(=O)N4CCN(c5ccc(Cl)cc5)CC4)cc3)[nH]c2c1=O | 106 % of DMSO
O=C1c2cccc(O)c2C(=O)c2c(O)cccc21 | 121 % of DMSO
COc1cc(/C=C2\CCCN([C@@H](C)c3ccc(F)cc3)C2=O)ccc1-n1cnc(C)c1 | 121 % of DMSO
O=C(c1cc(C2CC2)on1)N(C1CCCCC1)C1CCCCC1 | 107 % of DMSO
CCOC(=O)c1ccc(C#Cc2ccc3c(c2)C(C)(C)CCS3)nc1 | 137 % of DMSO
NS(=O)(=O)Cc1noc2ccccc12 | 106 % of DMSO and 94.3 % of DMSO and 103 % of DMSO
N#CC(c1ccc(Cl)cc1)c1c(Cl)cc(-n2ncc(=O)[nH]c2=O)cc1Cl (centres unmarked) | 81.1 % of DMSO
OC[C@H]1O[C@@H](n2cnc3c2N=CNC[C@H]3O)C[C@@H]1O | 119 % of DMSO
Cc1ccc(C(C)(O)c2nc3ccccc3s2)c(C)c1 (centres unmarked) | 116 % of DMSO
Oc1c(CN2CCN(c3ccccn3)CC2)cc(Cl)c2cccnc12 | 227 % of DMSO
CC(C)(C)C(=O)OCOC(=O)[C@@H]1N2C(=O)[C@@H](NC(=O)[C@H](N)c3ccccc3)[C@H]2SC1(C)C | 87.3 % of DMSO
CC(C)(Sc1ccc(CCN(CCCCC2CCCCC2)C(=O)NC2CCCCC2)cc1)C(=O)O | 105 % of DMSO
COc1ccc(S(=O)(=O)Nc2cc(Cl)cc(Cl)c2OC)cc1N1CCNCC1 | 131 % of DMSO
CCCn1c(=O)c2[nH]c(-c3ccc(OCC(=O)NCCN)cc3)nc2n(CCC)c1=O | 104 % of DMSO

Block 4 — method: competition with immobilised ligand; tested at: 1 µM
Structure (SMILES): C[C@@]1(Cc2ccc(C#N)cc2)C(=O)N(c2cc(Cl)cc(Cl)c2)c2ncc(C(=O)NC3(c4nc(C5CCC5)no4)CC3)n21
target | test | remaining binding [%]
EPHB2 (Homo sapiens, UniProt P29323) | cell-free assay | 94
PAK1 (Homo sapiens, UniProt Q13153) | cell-free assay | 99
ROCK2 (Homo sapiens, UniProt O75116) | cell-free assay | 100
WNK4 (Homo sapiens, UniProt Q96J92) | cell-free assay | 100
RET (Homo sapiens, UniProt P07949, M918T) | cell-free assay | 100
DCLK2 (Homo sapiens, UniProt Q8N568) | cell-free assay | 100
CDK14 (Homo sapiens, UniProt O94921) | cell-free assay | 100
IRAK3 (Homo sapiens, UniProt Q9Y616) | cell-free assay | 100
Aurora kinase B (AURKB, Homo sapiens, UniProt Q96GD4) | cell-free assay | 100
Tyrosine-protein kinase ABL1, phosphorylated (ABL1, Homo sapiens, UniProt P00519) | cell-free assay | 100
VRK2 (Homo sapiens, UniProt Q86Y07) | cell-free assay | 100
BLK (Homo sapiens, UniProt P51451) | cell-free assay | 100
CDK11A (Homo sapiens, UniProt Q9UQ88) | binding | 100
FLT3 (Homo sapiens, UniProt P36888, D835V) | cell-free assay | 100
ALK (Homo sapiens, UniProt Q9UM73, C1156Y) | cell-free assay | 100
MKNK1 (Homo sapiens, UniProt Q9BUB5) | cell-free assay | 100
KDR (Homo sapiens, UniProt P35968) | cell-free assay | 100
WEE2 (Homo sapiens, UniProt P0C1S8) | cell-free assay | 100
Cyclin-dependent kinase 4, with cyclin D3 (CDK4, Homo sapiens, UniProt P11802) | cell-free assay | 93
ERBB4 (Homo sapiens, UniProt Q15303) | cell-free assay | 100
CAMK2D (Homo sapiens, UniProt Q13557) | cell-free assay | 100
